Measurements of several laboratories.
A part holds a random share of what one study measured.
Sequence of UniProt P42336 (whole entry, unmodified, looked up): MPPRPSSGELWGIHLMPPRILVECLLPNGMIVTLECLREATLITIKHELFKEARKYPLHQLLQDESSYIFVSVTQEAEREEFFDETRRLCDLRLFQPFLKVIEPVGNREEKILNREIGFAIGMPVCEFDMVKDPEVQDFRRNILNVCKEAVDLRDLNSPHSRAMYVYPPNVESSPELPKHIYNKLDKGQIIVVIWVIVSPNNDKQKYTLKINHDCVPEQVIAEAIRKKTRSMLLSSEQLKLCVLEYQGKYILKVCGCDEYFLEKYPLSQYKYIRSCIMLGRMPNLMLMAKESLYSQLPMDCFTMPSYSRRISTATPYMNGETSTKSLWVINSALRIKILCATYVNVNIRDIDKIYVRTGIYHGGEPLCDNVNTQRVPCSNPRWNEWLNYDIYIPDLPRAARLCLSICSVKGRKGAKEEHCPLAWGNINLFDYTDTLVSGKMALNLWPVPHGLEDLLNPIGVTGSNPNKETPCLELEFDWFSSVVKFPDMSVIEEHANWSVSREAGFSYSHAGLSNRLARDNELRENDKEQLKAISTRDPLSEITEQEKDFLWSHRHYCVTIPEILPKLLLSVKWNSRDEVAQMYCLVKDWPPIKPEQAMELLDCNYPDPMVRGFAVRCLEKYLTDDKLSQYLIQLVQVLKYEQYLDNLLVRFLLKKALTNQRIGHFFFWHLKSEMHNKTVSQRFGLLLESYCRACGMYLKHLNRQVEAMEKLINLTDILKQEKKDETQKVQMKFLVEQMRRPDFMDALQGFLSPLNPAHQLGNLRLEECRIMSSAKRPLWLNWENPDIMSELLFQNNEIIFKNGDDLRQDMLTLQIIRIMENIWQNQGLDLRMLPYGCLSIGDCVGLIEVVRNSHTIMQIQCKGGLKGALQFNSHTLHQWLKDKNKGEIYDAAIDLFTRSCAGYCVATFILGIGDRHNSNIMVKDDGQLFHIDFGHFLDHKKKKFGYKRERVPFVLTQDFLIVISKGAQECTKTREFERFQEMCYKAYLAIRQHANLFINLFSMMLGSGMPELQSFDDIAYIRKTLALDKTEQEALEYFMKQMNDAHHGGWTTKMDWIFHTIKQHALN
Sequence of UniProt P11309 (whole entry, looked up): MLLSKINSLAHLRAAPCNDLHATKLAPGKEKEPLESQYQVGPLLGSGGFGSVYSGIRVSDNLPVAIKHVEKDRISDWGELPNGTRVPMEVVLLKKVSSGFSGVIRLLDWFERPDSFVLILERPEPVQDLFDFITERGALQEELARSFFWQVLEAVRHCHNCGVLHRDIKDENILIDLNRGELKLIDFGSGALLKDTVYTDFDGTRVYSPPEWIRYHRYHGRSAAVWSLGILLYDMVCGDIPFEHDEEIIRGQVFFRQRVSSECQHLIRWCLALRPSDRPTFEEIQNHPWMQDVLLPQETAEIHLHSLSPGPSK
Sequence of UniProt Q13523 (whole entry, looked up): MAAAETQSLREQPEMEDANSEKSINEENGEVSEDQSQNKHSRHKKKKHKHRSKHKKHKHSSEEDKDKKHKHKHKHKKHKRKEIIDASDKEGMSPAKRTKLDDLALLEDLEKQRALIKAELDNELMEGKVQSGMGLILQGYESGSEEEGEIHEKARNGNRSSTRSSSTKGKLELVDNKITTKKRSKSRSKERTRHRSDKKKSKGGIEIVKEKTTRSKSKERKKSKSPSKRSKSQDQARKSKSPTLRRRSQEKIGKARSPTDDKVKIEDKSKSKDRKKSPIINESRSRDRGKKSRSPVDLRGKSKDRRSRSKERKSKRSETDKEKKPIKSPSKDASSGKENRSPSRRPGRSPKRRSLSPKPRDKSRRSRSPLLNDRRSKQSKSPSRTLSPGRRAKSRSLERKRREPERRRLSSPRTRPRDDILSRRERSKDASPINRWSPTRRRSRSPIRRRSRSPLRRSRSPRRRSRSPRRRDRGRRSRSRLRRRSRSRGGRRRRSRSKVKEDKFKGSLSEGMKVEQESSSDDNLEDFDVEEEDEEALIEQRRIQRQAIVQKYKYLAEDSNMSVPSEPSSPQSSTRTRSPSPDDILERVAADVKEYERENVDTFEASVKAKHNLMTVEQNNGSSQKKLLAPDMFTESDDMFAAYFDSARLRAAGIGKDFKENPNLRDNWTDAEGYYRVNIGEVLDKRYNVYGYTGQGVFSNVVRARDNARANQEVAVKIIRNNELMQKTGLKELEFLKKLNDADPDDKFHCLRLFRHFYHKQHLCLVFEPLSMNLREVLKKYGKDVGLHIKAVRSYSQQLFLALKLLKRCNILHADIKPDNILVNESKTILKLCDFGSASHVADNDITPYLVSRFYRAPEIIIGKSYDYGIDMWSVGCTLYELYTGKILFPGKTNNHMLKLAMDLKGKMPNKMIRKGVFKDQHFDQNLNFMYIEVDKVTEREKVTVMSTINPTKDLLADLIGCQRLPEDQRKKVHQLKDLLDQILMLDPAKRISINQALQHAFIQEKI
Sequence of UniProt P27448 (whole entry, looked up): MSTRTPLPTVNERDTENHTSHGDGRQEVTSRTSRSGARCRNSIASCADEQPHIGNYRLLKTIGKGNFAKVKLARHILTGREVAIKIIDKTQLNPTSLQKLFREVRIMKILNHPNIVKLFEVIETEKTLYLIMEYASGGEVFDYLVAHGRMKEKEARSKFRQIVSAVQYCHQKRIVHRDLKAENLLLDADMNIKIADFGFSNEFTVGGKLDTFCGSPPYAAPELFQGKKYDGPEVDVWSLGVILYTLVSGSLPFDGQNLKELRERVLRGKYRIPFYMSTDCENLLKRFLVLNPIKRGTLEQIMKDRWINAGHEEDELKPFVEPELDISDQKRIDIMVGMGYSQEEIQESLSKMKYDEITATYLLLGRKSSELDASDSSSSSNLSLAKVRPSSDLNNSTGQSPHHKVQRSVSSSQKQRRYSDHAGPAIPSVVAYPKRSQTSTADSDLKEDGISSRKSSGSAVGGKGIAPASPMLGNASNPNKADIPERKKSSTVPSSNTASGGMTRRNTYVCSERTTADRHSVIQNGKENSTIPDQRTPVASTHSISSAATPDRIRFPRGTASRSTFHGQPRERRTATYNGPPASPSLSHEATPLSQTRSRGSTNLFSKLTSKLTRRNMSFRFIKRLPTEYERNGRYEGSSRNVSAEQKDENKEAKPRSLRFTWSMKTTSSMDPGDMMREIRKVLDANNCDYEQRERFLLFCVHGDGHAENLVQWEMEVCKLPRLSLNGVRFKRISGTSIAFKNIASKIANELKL
Sequence of UniProt Q99640 (whole entry, looked up): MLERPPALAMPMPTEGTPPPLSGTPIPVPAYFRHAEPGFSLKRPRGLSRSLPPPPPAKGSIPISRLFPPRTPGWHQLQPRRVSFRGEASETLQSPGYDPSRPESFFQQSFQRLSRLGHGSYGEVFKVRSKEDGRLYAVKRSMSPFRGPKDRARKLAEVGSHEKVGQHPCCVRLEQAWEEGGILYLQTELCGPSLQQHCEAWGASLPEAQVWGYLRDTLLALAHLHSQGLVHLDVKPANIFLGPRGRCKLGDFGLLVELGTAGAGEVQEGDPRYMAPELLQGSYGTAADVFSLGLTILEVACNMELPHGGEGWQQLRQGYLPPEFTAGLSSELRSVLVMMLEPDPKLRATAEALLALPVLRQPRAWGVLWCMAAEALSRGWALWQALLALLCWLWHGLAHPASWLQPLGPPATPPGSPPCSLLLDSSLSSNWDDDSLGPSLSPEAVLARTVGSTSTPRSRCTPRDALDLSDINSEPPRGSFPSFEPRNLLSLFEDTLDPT
Sequence of UniProt P45983 (whole entry, looked up): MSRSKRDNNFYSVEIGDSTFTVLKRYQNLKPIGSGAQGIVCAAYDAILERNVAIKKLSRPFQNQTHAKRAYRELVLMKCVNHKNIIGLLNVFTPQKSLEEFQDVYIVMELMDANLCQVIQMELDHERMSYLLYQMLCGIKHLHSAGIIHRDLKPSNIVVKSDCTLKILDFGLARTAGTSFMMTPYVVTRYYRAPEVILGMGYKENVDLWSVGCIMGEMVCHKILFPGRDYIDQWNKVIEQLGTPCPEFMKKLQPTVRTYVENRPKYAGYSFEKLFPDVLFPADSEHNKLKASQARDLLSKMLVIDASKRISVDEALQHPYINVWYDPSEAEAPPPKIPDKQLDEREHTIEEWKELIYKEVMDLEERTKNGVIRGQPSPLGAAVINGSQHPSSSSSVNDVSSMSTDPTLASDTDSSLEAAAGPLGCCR
Sequence of UniProt Q9Y6E0 (whole entry, looked up): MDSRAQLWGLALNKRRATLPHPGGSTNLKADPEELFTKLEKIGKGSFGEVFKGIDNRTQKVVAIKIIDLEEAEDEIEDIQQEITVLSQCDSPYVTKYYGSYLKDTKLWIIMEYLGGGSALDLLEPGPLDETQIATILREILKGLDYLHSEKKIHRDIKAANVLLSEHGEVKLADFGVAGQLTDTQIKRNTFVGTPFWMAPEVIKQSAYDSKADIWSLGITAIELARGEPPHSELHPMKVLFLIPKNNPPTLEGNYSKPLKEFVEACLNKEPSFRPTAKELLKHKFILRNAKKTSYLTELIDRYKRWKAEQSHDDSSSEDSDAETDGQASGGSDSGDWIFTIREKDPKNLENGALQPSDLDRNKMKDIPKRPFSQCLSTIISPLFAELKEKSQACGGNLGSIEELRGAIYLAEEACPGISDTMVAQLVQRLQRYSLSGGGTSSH

Study 1
Compound: CN(c1ccnc(CNc2nc(Nc3ccc4c(c3)CC(=O)N4)ncc2C(F)(F)F)n1)S(C)(=O)=O
Read-out: cell-free assay
Method: competition with immobilised ligand
Tested at: 1 µM
Measurement: remaining binding
target = LIM domain kinase 1 (LIMK1, Homo sapiens, UniProt P53667); result = 97%
target = STK35 (Homo sapiens, UniProt Q8TDR2); result = 86%
target = MAP4K1 (Homo sapiens, UniProt Q92918); result = 33%
target = PAK5 (Homo sapiens, UniProt Q9P286); result = 76%
target = PIK3CA (Homo sapiens, UniProt P42336, E545A); result = 90%
target = SGK1 (Homo sapiens, UniProt O00141); result = 66%
target = FLT4 (Homo sapiens, UniProt P35916); result = 92%
target = LATS1 (Homo sapiens, UniProt O95835); result = 51%
target = STK24 (Homo sapiens, UniProt Q9Y6E0); result = 93%
target = PIM1 (Homo sapiens, UniProt P11309); result = 79%
target = TYRO3 (Homo sapiens, UniProt Q06418); result = 99%
target = STK17B (Homo sapiens, UniProt O94768); result = 48%
target = ANKK1 (Homo sapiens, UniProt Q8NFD2); result = 84%
target = PRKACB (Homo sapiens, UniProt P22694); result = 88%
target = SRPK3 (Homo sapiens, UniProt Q9UPE1); result = 11%
target = BUB1 (Homo sapiens, UniProt O43683); result = 91%
target = MAP4K3 (Homo sapiens, UniProt Q8IVH8); result = 87%
target = PLK3 (Homo sapiens, UniProt Q9H4B4); result = 1.7%
target = PIK3CA (Homo sapiens, UniProt P42336, H1047L); result = 92%
target = LRRK2 (Homo sapiens, UniProt Q5S007, G2019S); result = 7.3%
target = BRAF (Homo sapiens, UniProt P15056); result = 82%
target = GSK3A (Homo sapiens, UniProt P49840); result = 64%
target = PKMYT1 (Homo sapiens, UniProt Q99640); result = 100%
target = PRPF4B (Homo sapiens, UniProt Q13523); result = 23%
target = Tyrosine-protein kinase JAK1, JH2 (JAK1, Homo sapiens, UniProt P23458); result = 20%

Study 2
Target: Calcium/calmodulin-dependent protein kinase type II subunit alpha (CAMK2A, Homo sapiens, UniProt Q9UQM7)
Sequence of UniProt Q9UQM7 (whole entry, looked up): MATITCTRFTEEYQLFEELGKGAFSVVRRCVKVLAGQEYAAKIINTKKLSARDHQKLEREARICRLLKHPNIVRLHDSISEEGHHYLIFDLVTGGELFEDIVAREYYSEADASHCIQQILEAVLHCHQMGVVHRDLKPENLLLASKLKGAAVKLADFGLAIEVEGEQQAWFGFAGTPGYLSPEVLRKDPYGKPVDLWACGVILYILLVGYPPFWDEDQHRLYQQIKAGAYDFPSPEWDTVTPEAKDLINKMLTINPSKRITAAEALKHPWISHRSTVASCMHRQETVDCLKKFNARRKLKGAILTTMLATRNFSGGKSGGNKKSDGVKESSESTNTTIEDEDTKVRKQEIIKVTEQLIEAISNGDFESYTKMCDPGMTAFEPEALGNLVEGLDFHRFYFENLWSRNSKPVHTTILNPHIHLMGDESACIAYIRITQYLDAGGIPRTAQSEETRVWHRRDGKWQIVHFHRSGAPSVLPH
Read-out: enzyme activity
Mode: inhibitor
Tested at: 10 µM
Measurement: inhibition
SMILES = C=C(C)[C@H](C)c1cc(/C=C/C(=O)c2ccc(O)cc2)c(OC)cc1O; result = -11%
SMILES = COc1ccc2c(O[C@@H]3C[C@H]4C(=O)N[C@]5(C(=O)NS(=O)(=O)C6CC6)C[C@H]5/C=C\CCCCN(C)C(=O)[C@@H]4C3)cc(-c3nc(C(C)C)cs3)nc2c1C; result = 0%
SMILES = C[C@H](N)C(=O)N[C@@H](CCC(N)=O)C(=O)O; result = 10%
SMILES = COc1ccc(CCC(=O)c2c(O)cc(O[C@@H]3O[C@H](CO)[C@@H](O)[C@H](O)[C@H]3O[C@@H]3O[C@@H](C)[C@H](O)[C@@H](O)[C@H]3O)cc2O)cc1O; result = 9%
SMILES = CCCCOc1cc(C(=O)OCCN(CC)CC)ccc1N; result = 5%
SMILES = O=C(CO)[C@@H](O)[C@H](O)[C@@H](O)CO; result = 30%
SMILES = COc1cc(O)c2c(c1)O[C@H](c1cc(O)cc(O)c1)CC2=O; result = -63%
SMILES = O=C(/C=C/c1ccc(O)c(O)c1)c1ccc(O)c(O)c1O; result = -28%
SMILES = O=C(O[C@@H]1Cc2c(O)cc(O)cc2O[C@H]1c1cc(O)c(O)c(O)c1)c1cc(O)c(O)c(O)c1; result = -71%
SMILES = CCCCOc1ccc(OCCCN2CCOCC2)cc1; result = -4%
SMILES = C=C[C@@H]1CNC(=S)O1; result = -15%

Study 3
Compound: Cc1nc(Nc2ncc(C(=O)Nc3c(C)cccc3Cl)s2)cc(N2CCN(CCO)CC2)n1
Mode: inhibitor
Measurement: inhibition
target = BRSK2 (Homo sapiens, UniProt Q8IWQ3); setting = 10 µM; result = < 50%
target = NEK5 (Homo sapiens, UniProt Q6P3R8); setting = 10 µM; result = < 50%
target = LATS2 (Homo sapiens, UniProt Q9NRM7); setting = 10 µM; result = < 50%
target = MAPK8 (Homo sapiens, UniProt P45983); setting = 10 µM; result = < 50%
target = MARK3 (Homo sapiens, UniProt P27448); setting = 1 µM; result = < 50%
target = FER (Homo sapiens, UniProt P16591); setting = 10 µM; result = < 50%
target = EIF2AK2 (Homo sapiens, UniProt P19525); setting = 10 µM; result = < 50%
target = PTK2 (Homo sapiens, UniProt Q05397); setting = 1 µM; result = < 50%

Study 4
Host: mouse
Matrix: microsomes or S9
Tested at: 2 µM
Time: 0.5 h
Measurement: remaining compound
SMILES = O=S1(=O)N=C(N2CCCCC2)c2ccccc21; result = 89.3%
SMILES = Cc1ccc(C(=O)Cn2nc3n(Cc4ccccc4)c(=O)c4ccc(C(=O)NC(C)C)cc4n3c2=O)cc1; result = 38.4%
SMILES = COc1ccc(C(N)=O)cc1NC1C2CCOC2C12CCC2 (stereo not shown); result = 47.3%
SMILES = CC(C)n1ncc(N2CCOCC2)c(Cl)c1=O; result = 63.5%
SMILES = CCn1c2nc(C)cc(C)c2c(=O)n2c(C(=O)O)nnc12; result = 72.1%
SMILES = CCOC(C#Cc1cncc(I)c1N)OCC; result = 1.44%
SMILES = Cc1ccccc1-c1noc(-c2cc3c(COC(=O)C(C)C)cnc(C)c3oc2=O)n1; result = 39.4%
SMILES = Cc1nn(CCc2nn[nH]n2)c(C)c1Br; result = 23.9%

Excerpt of the above (study 1):
target = PIK3CA (Homo sapiens, UniProt P42336, H1047L); result = 92%
target = FLT4 (Homo sapiens, UniProt P35916); result = 92%
target = STK24 (Homo sapiens, UniProt Q9Y6E0); result = 93%
target = PLK3 (Homo sapiens, UniProt Q9H4B4); result = 1.7%
target = MAP4K1 (Homo sapiens, UniProt Q92918); result = 33%
target = PRPF4B (Homo sapiens, UniProt Q13523); result = 23%
target = Tyrosine-protein kinase JAK1, JH2 (JAK1, Homo sapiens, UniProt P23458); result = 20%
target = PRKACB (Homo sapiens, UniProt P22694); result = 88%
